{"data": "Experimental data from different studies", "note": "Each numbered part is a random draw from the data of one study; scales do not carry over between parts. Positions count from the first letter of the parent shown."}
{"data": "Sample 1", "target": "Histone acetyltransferase KAT6A, both winged helices, GST fusion (KAT6A, Homo sapiens, UniProt Q92794, residues 1-181)", "technique": "protein binding microarray", "form": "double-stranded DNA, one strand shown", "sample": "in vitro", "concentration": "not given", "setting": "8-mer, flanks averaged, mean of 2 arrays, mostly near background", "reference": "not given", "reading": "higher = stronger binding", "Residues (chain)": "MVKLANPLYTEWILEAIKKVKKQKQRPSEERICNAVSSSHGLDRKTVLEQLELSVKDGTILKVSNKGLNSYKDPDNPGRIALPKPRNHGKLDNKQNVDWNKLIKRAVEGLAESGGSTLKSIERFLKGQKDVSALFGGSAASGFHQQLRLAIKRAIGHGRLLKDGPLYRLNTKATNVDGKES"}
{"Sequence": "AAGTCCCC", "E-score": -0.117}
{"Sequence": "CTGTATAC", "E-score": -0.0662}
{"Sequence": "ATATGCTA", "E-score": -0.129}
{"Sequence": "CGCTTAAA", "E-score": 0.101}
{"Sequence": "CATAACCC", "E-score": -0.0917}
{"Sequence": "CTGTTACA", "E-score": 0.14}
{"Sequence": "GGGAATTA", "E-score": -0.035}
{"Sequence": "CATGAAGC", "E-score": 0.104}
{"Sequence": "CGATGGCA", "E-score": -0.0136}
{"Sequence": "CGGTTAGC", "E-score": 0.192}
{"Sequence": "GCGGAATA", "E-score": 0.203}
{"Sequence": "ACTCGCAT", "E-score": 0.0414}
{"Sequence": "CAAGGATA", "E-score": -0.0429}
{"Sequence": "CGATCGGA", "E-score": 0.116}
{"Sequence": "AATGGCTC", "E-score": -0.171}
{"Sequence": "ACCGCTCA", "E-score": 0.234}
{"Sequence": "CTATGACC", "E-score": -0.0331}
{"Sequence": "CTAGCCAC", "E-score": -0.0956}
{"Sequence": "AAGACATC", "E-score": -0.08}
{"Sequence": "AGGAATTA", "E-score": -0.148}
{"Sequence": "GACTCGCC", "E-score": 0.0728}
{"Sequence": "TCCTAAGA", "E-score": -0.174}
{"Sequence": "AACCGGTA", "E-score": 0.217}
{"Sequence": "CGAACTCG", "E-score": 0.0106}
{"Sequence": "ATTTAGCA", "E-score": -0.154}
{"data": "Sample 2", "target": "Probable WRKY transcription factor 33, C-terminal DNA-binding domain (WRKY33, Arabidopsis thaliana, UniProt Q8S8P5, residues 346-449)", "technique": "DNA-protein interaction ELISA", "form": "double-stranded DNA, one strand shown", "sample": "in vitro, bacterial lysate", "concentration": "not given", "setting": "whole dsDNA probe, crude lysate protein", "reference": "highest signal in screen", "reading": "higher = stronger binding", "Target sequence (chain)": "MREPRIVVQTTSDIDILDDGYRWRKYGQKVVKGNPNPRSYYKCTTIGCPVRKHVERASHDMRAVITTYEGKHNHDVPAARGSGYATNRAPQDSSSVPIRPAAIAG"}
{"Sequence": "AAAAAAAACTGTCGCCCCCGGCTGGCAAAA", "relative absorbance": "39.3 % of maximum"}
{"Sequence": "AAAAAAAACGTCTGGCGGGGTTGAGAAAAA", "relative absorbance": "46.6 % of maximum"}
{"Sequence": "AAAAAACTCTTAAGGAAAGTTCCGACAAAA", "relative absorbance": "41.3 % of maximum"}
{"Sequence": "AAAAAAGCGCGCCCGCACTGTTAATAAAAA", "relative absorbance": "33.5 % of maximum"}
{"Sequence": "AAAAAATTCGTTTTTCGTCTTTCATTAAAA", "relative absorbance": "69 % of maximum"}
{"Sequence": "AAAAAACGCCTTATGCCTCCCGCTCGAAAA", "relative absorbance": "32.6 % of maximum"}
{"Sequence": "AAAAAACTCCCTCTCCTCTGTCTTCCAAAA", "relative absorbance": "29.2 % of maximum"}
{"Sequence": "AAAAAAGGTGAGGAAGTTGGGTATGGAAAA", "relative absorbance": "29.8 % of maximum"}
{"Sequence": "AAAAAAGGTAATGCCGGTCCCAGTATAAAA", "relative absorbance": "52.8 % of maximum"}
{"Sequence": "AAAAAAGTCGTTACACGTATGCGTGCAAAA", "relative absorbance": "97.7 % of maximum"}
{"Sequence": "AAAAAAAGTATCAAAGCCTAGGGCTGAAAA", "relative absorbance": "44.3 % of maximum"}
{"Sequence": "AAAAAATTTATACTTGATCCTGGCTTAAAA", "relative absorbance": "29 % of maximum"}
{"Sequence": "AAAAAAAACAAAACCTCCTAATAGCGAAAA", "relative absorbance": "35.6 % of maximum"}
{"Sequence": "AAAAAAAGTTGTACTTATTATACTTTAAAA", "relative absorbance": "37.4 % of maximum"}
{"Sequence": "AAAAAAGGGGTCCTTTTCCAATGTCTAAAA", "relative absorbance": "29.2 % of maximum"}
{"Sequence": "AAAAAAATTCGCAACCCTCACGTTCGAAAA", "relative absorbance": "36.5 % of maximum"}
{"Sequence": "AAAAAATTCTAGCTTTTAACTTTAGCAAAA", "relative absorbance": "32 % of maximum"}
{"Sequence": "AAAAAATCTTACCCCTCCGCTTCTATAAAA", "relative absorbance": "43.2 % of maximum"}
{"Sequence": "AAAAAATCCATGTTTAAGCTGGTCTCAAAA", "relative absorbance": "44.4 % of maximum"}
{"Sequence": "AAAAAATCCTGTTTGCGTTTGATTTTAAAA", "relative absorbance": "47.7 % of maximum"}
{"data": "Sample 3", "target": "RNA binding protein fox-1 homolog 2, RRM domain, GST-SBP tag (RBFOX2, Homo sapiens, UniProt O43251-10, residues 100-194)", "technique": "RNA Bind-n-Seq", "form": "RNA", "sample": "in vitro", "concentration": "365 nM", "setting": "natural RNA segment, single round, ends assumed", "reference": "no-protein control", "reading": "higher = stronger binding", "constant ends, left off below": "GGGAGUUCUACAGUCCGACGAUC … UGGAAUUCUCGGGUGCCAA", "Target sequence (chain)": "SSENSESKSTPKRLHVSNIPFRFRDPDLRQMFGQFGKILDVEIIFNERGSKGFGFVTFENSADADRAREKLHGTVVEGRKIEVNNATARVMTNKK"}
{"Sequence": "UAGUUGAAUGUUGAGGCUUUAACUUUUUCGGUGUCUUUCUACAGCUGUGUUCUGUGACUCAAUUGUAUCGUGUUACUCUCAGUACAGACCGUCUCCUCUACGUGACCGUA", "RBNS enrichment (R)": 0.357}
{"Sequence": "GGUCCUGUGUUCAAUUCCCAGCAACCACAUGGUGGCUCACAACCAUCCGUAAUGAGAUCUGAUGCCCUCUUCUGGUGUGUCUGAAGAGAGCUACAGUGUACUCAUAUAAA", "RBNS enrichment (R)": 0.319}
{"Sequence": "AUAGCUACCUGCAAGACACUACUGUCCCUCUACUUUUGCCAGGAAAGCCACUCUACUAUGAAUGUUAUUGGGGCUACACUUGCCUUUCUUGCCCAAGGGCCUCCUGCAUA", "RBNS enrichment (R)": 0.7}
{"Sequence": "UUGGUCACAGUGUGCAUCGCACCGUGCUGUACAUGUGCAGACGCAGCCUGCAGCCAGGUUUUUAUUUAAUGUAAAUAGUUUCUGUUUCCACUGAGGCAGUUUCUGGUACU", "RBNS enrichment (R)": 0.239}
{"Sequence": "UAAAAAUGAGACCCCCAACUACCUAAAGCACCCAUCUUUGUAACUAGACCAUAACUAUACUGCUUUCAUCUGGUUCACCCCCUCUAUGUCAAGAGUCAAACUGUGUGAGA", "RBNS enrichment (R)": 0.417}
{"Sequence": "CCCUGAAAUCUGAAGGGCUUAGUUAGUACCUUGCCACUCUACCCCCAACACGUCACCCGAGUAGAAGCUGGGCAAGGCCCUACCAUCCUGGCCGUCUGUUCACAAGCCCA", "RBNS enrichment (R)": 0.791}
{"Sequence": "UGCUUGAGUACCAUGUGGCCAGGCCUAUGUGGAUGGCUACUCCGUGCUGUGCGGCUUCACCAGCGGUUGGGAUUGGCCCAGCUUGGAGUGCUUGUGUGGUCCAACCUCAG", "RBNS enrichment (R)": 1.22}
{"Sequence": "UCUGUUUGAGGAACUAACUACAUGGAAAAGACUUCUGACUUAAACCCAUGAAAUACUUCAUCUUGAGAAGAGUGCUAUGUGGAAAUCACCAAAUAUCUCGCAACUUUAUU", "RBNS enrichment (R)": 0.555}
{"Sequence": "AACAAUUCAGACAGAAAGGGAAAGUCCCUGAGGCAAAGUCUCUCUAGCCAGAGACCUAUGCAUCCCGAAUGGCCACUAAGGCAGUCCUGAAGGGCCCUCCAGGGUGAUGA", "RBNS enrichment (R)": 0.217}
{"Sequence": "GGCAGGAGUCAGGAGCCAGGGACUGUGCAGCCUGGAACCUCCAGUCACUGUGCCCAGCAGGGUGGGCUGUGCCCAGCAGGAGUCAGGCUAAGAAACGCCAGGUCUGCCUG", "RBNS enrichment (R)": 0.685}
{"Sequence": "GAAUUGAAUUUGCUCAAAAAAGAUGAAAGGAAAUGCAAACUGUAAAUGUAUAAAUGUAUAUUGUAUUGUAUGUACAUUUUAUAUUCAUAAUAAAGGCAAUCAAACUCUAA", "RBNS enrichment (R)": 1}
{"Sequence": "UGGAGCUUUCCUCUUGGAACAGUUAACCGAAGACCCUCAUGGGCAAGGACAUCCGCUUGACUCCCCACUCACCAUCAGGCCACACUUUUAAAGAAAAAUUGUUCUCUAAC", "RBNS enrichment (R)": 0.308}
{"data": "Sample 4", "target": "CREB3L3, bZIP domain (human)", "technique": "DHFR protein complementation", "sample": "yeast", "setting": "single substitutions, most at no-binding floor", "reference": "wild-type JUN-FOS pair", "reading": "higher = stronger binding", "starting sequence": "JUN, bZIP domain (human); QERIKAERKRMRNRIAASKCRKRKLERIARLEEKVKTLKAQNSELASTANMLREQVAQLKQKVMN; partner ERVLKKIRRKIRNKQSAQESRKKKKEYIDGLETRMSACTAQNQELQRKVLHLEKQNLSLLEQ"}
{"Substitution": "A49F", "binding fitness [natural log]": -1.53}
{"Substitution": "T48K", "binding fitness [natural log]": -1.54}
{"Substitution": "K36E", "binding fitness [natural log]": -1.31}
{"Substitution": "L52Y", "binding fitness [natural log]": -1.5}
{"Substitution": "L52G", "binding fitness [natural log]": -1.51}
{"Substitution": "L31D", "binding fitness [natural log]": -1.42}
{"Substitution": "E33S", "binding fitness [natural log]": -1.48}
{"Substitution": "E54Q", "binding fitness [natural log]": -1.48}
{"Substitution": "A46D", "binding fitness [natural log]": -1.52}
{"Substitution": "Q55H", "binding fitness [natural log]": -1.46}
{"Substitution": "Q55E", "binding fitness [natural log]": -1.64}
{"Substitution": "S47E", "binding fitness [natural log]": -1.32}
{"Substitution": "E32D", "binding fitness [natural log]": -1.29}
{"Substitution": "E33Q", "binding fitness [natural log]": -1.36}
{"Substitution": "A49D", "binding fitness [natural log]": -1.57}
{"Substitution": "V56H", "binding fitness [natural log]": -1.47}
{"Substitution": "E33T", "binding fitness [natural log]": -1.49}
{"Substitution": "A40L", "binding fitness [natural log]": -1.5}
{"Substitution": "T48I", "binding fitness [natural log]": -1.53}
{"Substitution": "L31F", "binding fitness [natural log]": -1.54}
{"Substitution": "T37L", "binding fitness [natural log]": -1.53}
{"Substitution": "L31H", "binding fitness [natural log]": -1.47}
{"Substitution": "E44V", "binding fitness [natural log]": -1.42}
{"Substitution": "L45R", "binding fitness [natural log]": -1.48}
{"Substitution": "R53N", "binding fitness [natural log]": -1.53}
{"note": "For quick reference, copied from above (sample 2):"}
{"Sequence": "AAAAAATTCGTTTTTCGTCTTTCATTAAAA", "relative absorbance": "69 % of maximum"}
{"Sequence": "AAAAAACGCCTTATGCCTCCCGCTCGAAAA", "relative absorbance": "32.6 % of maximum"}
{"Sequence": "AAAAAACTCCCTCTCCTCTGTCTTCCAAAA", "relative absorbance": "29.2 % of maximum"}
{"Sequence": "AAAAAAGGTGAGGAAGTTGGGTATGGAAAA", "relative absorbance": "29.8 % of maximum"}
{"Sequence": "AAAAAAGGTAATGCCGGTCCCAGTATAAAA", "relative absorbance": "52.8 % of maximum"}
{"Sequence": "AAAAAAGTCGTTACACGTATGCGTGCAAAA", "relative absorbance": "97.7 % of maximum"}
{"Sequence": "AAAAAAAGTATCAAAGCCTAGGGCTGAAAA", "relative absorbance": "44.3 % of maximum"}
